Experimental data collected from several papers.
Every numbered part comes from another study and shows a few of its results, in no order. Changes are numbered by the printed parent chain.

Study 1 — technique: universal PBM; form: double-stranded DNA, one strand shown; matrix: in vitro; concentration: 600 nM; reading: higher = stronger binding
Target: Sal-like protein 4, full length isoform A (SALL4, Homo sapiens, UniProt Q9UJQ4, residues 1-1053)
Chain of UniProt Q9UJQ4 (whole entry, looked up): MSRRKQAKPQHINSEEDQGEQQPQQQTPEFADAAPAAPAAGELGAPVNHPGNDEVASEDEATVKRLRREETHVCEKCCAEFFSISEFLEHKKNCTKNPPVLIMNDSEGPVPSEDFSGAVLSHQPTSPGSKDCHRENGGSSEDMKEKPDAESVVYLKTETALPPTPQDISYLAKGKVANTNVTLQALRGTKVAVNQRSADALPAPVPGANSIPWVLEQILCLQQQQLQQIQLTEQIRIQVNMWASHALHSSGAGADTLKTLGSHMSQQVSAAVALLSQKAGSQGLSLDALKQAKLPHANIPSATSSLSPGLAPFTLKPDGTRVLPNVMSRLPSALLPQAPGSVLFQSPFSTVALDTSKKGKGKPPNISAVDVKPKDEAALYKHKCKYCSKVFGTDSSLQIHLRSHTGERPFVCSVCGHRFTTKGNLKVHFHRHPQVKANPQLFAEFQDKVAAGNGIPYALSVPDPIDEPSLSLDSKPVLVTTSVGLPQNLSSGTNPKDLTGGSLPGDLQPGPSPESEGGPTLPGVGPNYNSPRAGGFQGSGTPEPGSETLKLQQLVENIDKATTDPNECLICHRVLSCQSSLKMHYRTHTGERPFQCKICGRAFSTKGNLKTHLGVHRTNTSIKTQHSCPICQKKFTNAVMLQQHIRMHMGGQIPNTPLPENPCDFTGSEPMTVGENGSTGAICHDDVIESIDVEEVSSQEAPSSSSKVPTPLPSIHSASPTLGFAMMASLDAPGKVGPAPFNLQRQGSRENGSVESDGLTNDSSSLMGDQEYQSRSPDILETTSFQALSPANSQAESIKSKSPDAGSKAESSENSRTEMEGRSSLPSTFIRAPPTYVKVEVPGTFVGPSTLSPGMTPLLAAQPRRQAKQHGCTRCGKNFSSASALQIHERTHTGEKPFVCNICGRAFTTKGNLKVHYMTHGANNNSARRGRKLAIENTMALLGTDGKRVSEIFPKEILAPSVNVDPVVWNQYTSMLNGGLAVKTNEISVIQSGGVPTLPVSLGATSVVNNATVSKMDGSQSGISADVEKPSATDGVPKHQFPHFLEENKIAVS
Setting: 8-mer, flanks averaged, mean of replicates
For `CGCAAAGC`, the E-score was -0.0961.
`ACAGTGAT` gave an E-score of 0.0718.
For `ACACTACT`, the E-score was 0.0709.
With `CGTACACG` the E-score was 0.00717.
For `ACTTTATA`, the E-score was 0.361.
With `CTGAGAGC` the E-score was -0.212.
`CCAGATAA` gave an E-score of 0.202.
For `ATCTGCGA`, the E-score was -0.104.
For `CATCAATA`, the E-score was 0.329.
For `TAATCTCA`, the E-score was 0.188.
`AACCTCAT` has an E-score of 0.0921.
For `ACATTACC`, the E-score was 0.0446.
For `TAAGTAGA`, the E-score was 0.184.
`CAACACGA` gave an E-score of -0.0339.
`GCGCGAGC` has an E-score of -0.284.
With `CAAAATAG` the E-score was 0.15.
`GAGAGAGC` gave an E-score of -0.159.
`CGCGCAGC` gave an E-score of -0.326.
The E-score of `CCGTCTCC` is reported as -0.306.
`AGTCTCTC` gave an E-score of -0.137.
With `ATGGGAAT` the E-score was 0.0832.
The E-score of `AATAACGT` is reported as 0.312.
The E-score of `CGGCTCGC` is reported as -0.146.
`CGATGCCG` has an E-score of -0.314.
`CCATGCAC` gave an E-score of -0.174.

Study 2 — technique: RNA Bind-n-Seq; form: RNA; matrix: in vitro; concentration: not given; relative to: input RNA pool; reading: higher = stronger binding
Target: RING finger protein unkempt homolog, zinc fingers 1-6, GST-SBP tag (UNK, Homo sapiens, UniProt Q9C0B0, residues 30-357)
Chain of UniProt Q9C0B0 (30-357, looked up): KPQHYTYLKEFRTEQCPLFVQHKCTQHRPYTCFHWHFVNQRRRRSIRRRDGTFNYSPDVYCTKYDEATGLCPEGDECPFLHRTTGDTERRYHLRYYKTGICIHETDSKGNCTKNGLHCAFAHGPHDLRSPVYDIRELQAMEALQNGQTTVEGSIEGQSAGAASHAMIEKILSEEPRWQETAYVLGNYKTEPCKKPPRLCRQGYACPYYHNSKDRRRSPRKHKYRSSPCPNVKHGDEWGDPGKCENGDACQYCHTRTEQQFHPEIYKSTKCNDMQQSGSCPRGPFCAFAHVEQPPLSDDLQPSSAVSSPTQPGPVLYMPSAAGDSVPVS
Setting: RNA with constant flanks, human and mouse sites, ends assumed
For `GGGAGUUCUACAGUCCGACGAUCGUCUGUUUACUAGAUGAAAAGCUACAAGCAAUUGCAGAGAAUUUGGGUUCAAUUCUUUUUUUUUUUUUUUACACGUAUUUUCCUCAAAUUACAUUUCCAAUGCUAUCUCAAAAGUCCCCCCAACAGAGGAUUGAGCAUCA`, the bound/input enrichment was 1.65 ratio.
With `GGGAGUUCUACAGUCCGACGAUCCUUGCAUUUCUUUUCCUAAAUCUUAUUUAGGCUAAAUCAGUUUUAUUUUUCUCUGAUUUUUUUUAAUACCACAGAAUCACCUGAGUGUCAAUUGAAAGUUGUCAAUUAAAAGGUAACCUUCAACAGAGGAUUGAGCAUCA` the bound/input enrichment was 0.558 ratio.
`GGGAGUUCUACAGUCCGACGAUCUGCUGAGGAGGCGGAUUAGGGGGGCGCGGAGUCUCUUCCCUUGAGUGCAUAGGUCCCGGUUGGUAGAGGGUUUGAGUCCGCAUCGCCACAGCUGAAGGCUGCGAGGGACUAAGAGCAGAACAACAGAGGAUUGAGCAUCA` gave a bound/input enrichment of 0.0747 ratio.
The bound/input enrichment of `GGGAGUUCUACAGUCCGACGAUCGCUGUGCAGUUCUUGCCUCCCUCACGGGGCGUCACCCCCAGCCCAGCUCCGUUGUACAUAAAUGCCUUGUGGCAGAGCUCCCGGUGAACUUCUGGAUCCCGUUUCUGAUGCAGACUCUUGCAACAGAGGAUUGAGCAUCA` is reported as 0.0928 ratio.
For `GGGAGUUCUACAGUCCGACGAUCGAGAAGUCGACUCAUGAGAAAAUCCUAGAGAAGGCAAUGAAGAAGAAGGGGGGAAGUAAUUGUCUCGAAAUGAAAAAAGAAACAGAAAUCAAAAUUCAGACGCUGACAUCAGAUCACAAACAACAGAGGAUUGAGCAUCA`, the bound/input enrichment was 0.436 ratio.
The bound/input enrichment of `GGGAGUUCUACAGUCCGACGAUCUAGAGAACAAUGACCUCAUUUUAUUUUCUAUGUUAGUUAUUUAUUUCAAAAUUAACAUUUUAGUUGAUUUUUGUCUGAUAAGUCUAUGUUUUGCACUGCUAACUAUGAUGAGGGUUUAAACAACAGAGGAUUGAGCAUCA` is reported as 1.57 ratio.
`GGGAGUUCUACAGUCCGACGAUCAUUCGGCUCCGCCUGGAGAGCUGUGAAGACAGGUUGAUUCGGCAGAUCCGGACUCCCCUGGAAAGAGAUGAUUUACAUGAAAGCAUGCUCAGGAUCACGGAGCAGGAGAAACUGAAGAAACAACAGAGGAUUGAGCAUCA` has a bound/input enrichment of 0.353 ratio.
For `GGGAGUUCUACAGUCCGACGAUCCUCUGUCCUGAGUGUGAGAAUCCUGAAACAGAUCUGCAUGUCAAUCCAAAGAAGCAAACAAUAGGUAAUUCUUGUAAAGCCUGUGGGUACCGAGGCAUGCUUGACACACAUCAUAAACUCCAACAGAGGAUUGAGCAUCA`, the bound/input enrichment was 0.233 ratio.
`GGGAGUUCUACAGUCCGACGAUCUCCAAAAAGAUCCAGCAGAUCCAUGUGGUUUCCCAGUUUAAGAUUCUGGUCAGCUUGUUAGAAAACAACAUUUAUGUCCAUGACUUACUGACAUUUCAACAAAUCACUACAGUCUCAAAGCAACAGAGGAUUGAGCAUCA` has a bound/input enrichment of 0.0898 ratio.
With `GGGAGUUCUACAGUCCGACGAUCUCUGUGGAAACAUCUGUAGAUCUAAAAACAACAGACACUUCUCACAUACAAGGAAGUAGUGCUGUGGAGGAAAGCUGGGAAUCUAUGUUUAAUGAUGAUGGUGAUUGUGUAGAUCCACGUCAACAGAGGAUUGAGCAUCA` the bound/input enrichment was 0.323 ratio.
With `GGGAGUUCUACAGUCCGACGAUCCCUCUGCUGCGAGAAGUUCUGGAGAAGCAGCCAGUGCUAAGCCAGACCGAGGCCCGCGACUUAGUAGAACGCUGCAUGCGAGUGCUGUACUACCGAGAUGCCCGUUCUUACAACCGGUUUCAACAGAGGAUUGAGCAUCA` the bound/input enrichment was 0.0459 ratio.

Study 3 — target: CCND3, cyclin fold, Cln2 fusion (human); technique: yeast growth competition, sequencing; matrix: yeast; setting: weak parent motif; relative to: not given; reading: higher = stronger binding
Starting sequence: WEE1 docking peptide (human); HKTFRKLRLFDTP; partner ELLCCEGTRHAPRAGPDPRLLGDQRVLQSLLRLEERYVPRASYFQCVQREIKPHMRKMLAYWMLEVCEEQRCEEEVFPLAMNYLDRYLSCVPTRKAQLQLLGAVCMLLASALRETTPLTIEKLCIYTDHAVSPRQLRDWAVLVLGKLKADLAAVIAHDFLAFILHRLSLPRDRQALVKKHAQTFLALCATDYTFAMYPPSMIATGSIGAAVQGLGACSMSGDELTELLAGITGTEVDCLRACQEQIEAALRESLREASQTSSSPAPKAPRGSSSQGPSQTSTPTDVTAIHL
For `F4D`, “normalised enrichment score” read 0.1.
`D11R` — result for “normalised enrichment score”: 0.12.
`R8S`: “normalised enrichment score” 0.244.
`L9S` — result for “normalised enrichment score”: 0.16.
`L7K` — result for “normalised enrichment score”: 0.142.
Under “normalised enrichment score”, `K2D` is recorded as 0.156.
`H1N`: “normalised enrichment score” 0.142.
`L7E`: “normalised enrichment score” 0.108.
`D11T`: “normalised enrichment score” 0.0605.
`L9H`: “normalised enrichment score” 0.107.
For `L9K`, “normalised enrichment score” read 0.21.
Under “normalised enrichment score”, `L9C` is recorded as 0.103.
Under “normalised enrichment score”, `P13L` is recorded as 0.0798.

Study 4 — technique: RNA Bind-n-Seq; form: RNA; matrix: in vitro; concentration: 200 nM; setting: whole 134-nt RNA, ends assumed; with: 150 mM LiCl; relative to: input library; reading: higher = stronger binding; library: 7-deaza-guanosine replaces G
Target: Ras GTPase-activating protein-binding protein 1, full length (G3BP1, Homo sapiens, UniProt Q13283)
Chain of UniProt Q13283 (whole entry, looked up): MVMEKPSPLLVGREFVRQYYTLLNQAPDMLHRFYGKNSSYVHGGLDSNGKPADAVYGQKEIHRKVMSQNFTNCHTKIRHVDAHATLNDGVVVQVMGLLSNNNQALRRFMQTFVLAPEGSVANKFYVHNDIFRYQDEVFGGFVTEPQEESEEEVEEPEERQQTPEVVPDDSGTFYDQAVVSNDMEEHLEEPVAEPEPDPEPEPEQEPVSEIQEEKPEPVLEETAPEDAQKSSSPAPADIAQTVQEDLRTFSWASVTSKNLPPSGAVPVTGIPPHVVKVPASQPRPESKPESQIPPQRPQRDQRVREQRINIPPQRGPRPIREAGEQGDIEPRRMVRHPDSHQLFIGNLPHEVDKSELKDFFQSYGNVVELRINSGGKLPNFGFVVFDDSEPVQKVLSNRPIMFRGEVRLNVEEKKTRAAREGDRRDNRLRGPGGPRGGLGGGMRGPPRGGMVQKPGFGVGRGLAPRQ
With `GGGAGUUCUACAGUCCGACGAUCGCAGGAAGUAAAAACAAAUGGAAAUGCUUCGGAUAGUGGCAGGGGUGGGGAUUGCUAAGGAAAGGGUGGGAUGGGAGUGGGUAAAGAGUUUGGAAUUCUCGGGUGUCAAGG` the log2 enrichment was 0.255.
With `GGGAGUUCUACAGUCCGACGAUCCCAACUCCUAUAAUUCCCUAUCUUUUAGUUUUAGUUGCAGAAACAUUUUGUGGUCAUUAAGCAUUGGGUGGGUAAAUUCAACCACUGUAAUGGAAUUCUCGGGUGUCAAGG` the log2 enrichment was 0.985.
The log2 enrichment of `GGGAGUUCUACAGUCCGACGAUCCUCAAGUCCUGUGCUACACAUCGUAUGUACCGAAUCGGGAAAGGGUGGGAGGGAAAGUAUUAUGUUACGCCGUUCGGAUCUGCACUUCCAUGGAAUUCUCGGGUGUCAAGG` is reported as 0.0917.
The log2 enrichment of `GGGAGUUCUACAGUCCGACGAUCUUGGCUCGAGAGAUUGAAUCAAGCCCCCAGUACCGCCUACGGAUCGCCAUGGAGAACGACGAUGGGCGCACUGAAGAGGAGAAGCACAGUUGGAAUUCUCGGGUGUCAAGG` is reported as -0.614.
With `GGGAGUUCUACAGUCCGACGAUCAAGUCCUGUGCUACACAUCGUAUGUACCGAAUCGGUGGAAAAAAAGGUUUUUUUGGAAAGUAUUAUGUUACGCCGUUCGGAUCUGCACUUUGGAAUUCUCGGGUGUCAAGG` the log2 enrichment was -2.17.
With `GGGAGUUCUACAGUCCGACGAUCAGUCCUGUGCUACACAUCGUAUGUACCGAAUCGGCCCCGGGCCCCGGGGCCCCGGGGAAAGUAUUAUGUUACGCCGUUCGGAUCUGCACUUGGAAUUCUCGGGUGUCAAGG` the log2 enrichment was -1.92.
`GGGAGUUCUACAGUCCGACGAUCCAGAACGAUCGAUACAGAAACCACGCUGCCGCCACCACACCAUCACCAUCGACAGAACAGUCCUUAAUCCAGAAACCUGAAAUGAAGGAAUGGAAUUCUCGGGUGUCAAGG` gave a log2 enrichment of 0.0905.
`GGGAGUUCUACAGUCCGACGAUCACCAUGCAGGUGGGCAUCUUUGGGAAGUGGGGCAAGGGGGGGAUAGGGAGGGGGGUAACACUUUGGGAACAGGUGGGCCCAGGUCGUUUCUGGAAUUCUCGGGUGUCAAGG` gave a log2 enrichment of -0.277.
With `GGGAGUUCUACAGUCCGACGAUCUAACUUUAGAGGAGGAUCUGAUGGAUAAGGCAGUGGACGUGGAUUUGGGGAUGGCUAUAAUGGGUAUGGAGGAGGACCUGGAGGUGGCAAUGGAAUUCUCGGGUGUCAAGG` the log2 enrichment was -0.275.
For `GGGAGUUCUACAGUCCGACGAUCGUCCUGUGCUACACAUCGUAUGUACCGAAUCGGGGAAAAAGGGGUUUGGGGAAAGGGGAAAGUAUUAUGUUACGCCGUUCGGAUCUGCACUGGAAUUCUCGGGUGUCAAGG`, the log2 enrichment was -1.22.
For `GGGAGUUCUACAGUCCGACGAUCUGGAAGGUGGAUUUUGUUUAUUUUUUUAGCUCAUUUCCAGGGGUGGGAAUUUUUUUUUAAUAUGUGUCAUGAAUAAAGUUGUUUUUGAAAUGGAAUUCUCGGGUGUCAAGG`, the log2 enrichment was -0.407.

Repeated from above (study 1):
`CCATGCAC` gave an E-score of -0.174.
`GAGAGAGC` gave an E-score of -0.159.
`AGTCTCTC` gave an E-score of -0.137.
For `TAAGTAGA`, the E-score was 0.184.
The E-score of `AATAACGT` is reported as 0.312.
`AACCTCAT` has an E-score of 0.0921.
For `ATCTGCGA`, the E-score was -0.104.
The E-score of `CCGTCTCC` is reported as -0.306.
For `CATCAATA`, the E-score was 0.329.
With `ATGGGAAT` the E-score was 0.0832.
